Experimental data pooled from the literature.
Compare with care: the assays were run in different laboratories. ± gives the spread as reported.

O=C([O-])c1cccc(CN(CCN(Cc2cn(Cc3ccccc3)nn2)Cc2cccc(C(=O)[O-])n2)Cc2cn(Cc3ccccc3)nn2)n1.[64Cu+2]  tissue uptake (healthy athymic nude mice, heart; intravenous, 24 h): 3.44 %ID/g
N=C(N)NCCC[C@H](NC(=O)CON=C[C@H](F)[C@@H](O)[C@H](O)[C@H](O)CO)C(=O)NCC(=O)N[C@@H](CC(=O)O)C(=O)O [fluorine-18 labelled]  tissue uptake (nude mice U-87 MG tumour, heart; intravenous, 0.5 h): 3.56 ± 1.11 %ID/g
NC12CNCCNCC(NCc3ccc(CNC(=O)CCCC(=O)NCc4ccc(-c5nncnn5)cc4)cc3)(CNCCNC1)CNCCNC2.[64Cu+2]  tissue uptake (athymic nude mice, SW1222 xenograft, large intestine, with contents; 24 h p.i., huA33-TCO pretargeting, 24 h interval): 0.26 ± 0.06 %ID/g
CN1C(=O)[C@@H](Cc2ccc(O)c(I)c2)NC(=O)CNC(=O)[C@H](Cc2ccc3ccccc3c2)NC(=O)[C@H](CCCNC(=N)N)NC(=O)[C@H]1CCCNC(=O)c1ccc(CNC(=O)CN2CCN(CC(=O)O)CCN(CC(=O)O)CCN(CC(=O)O)CC2)cc1 [lutetium-177 labelled]  tissue uptake (refers to: 177Lu radioactivity; female CB-17 SCID mice, Daudi xenograft, tumor; intravenous, 0.16 nmol per mouse, 6 h): 6.79 ± 0.68 %ID/g
N=C(N)NCCC[C@@H]1NC(=O)[C@H](CCCCNC(=O)CON=C[C@H](F)[C@@H](O)[C@H](O)[C@H](O)CO)NC(=O)[C@@H](Cc2ccc(O)cc2)NC(=O)[C@H](CC(=O)O)NC(=O)CNC1=O [fluorine-18 labelled]  tissue uptake (nude mice U-87 MG tumour, brain; intravenous, 2 h): 0.13 ± 0.07 %ID/g
O=C([O-])CN1CCN(CC(=O)[O-])CCN(CC(=O)[O-])CCN(CC(=O)[O-])CC1.[64Cu+2]  tissue uptake (healthy athymic nude mice, spleen; intravenous, 1 h): 0.34 %ID/g
CCCC[C@H](NC(=O)CN1CCC(NC(=O)CN2CCN(CC(=O)O)CCN(CC(=O)O)CCN(CC(=O)O)CC2)CC1)C(=O)N[C@H]1CC(=O)NCCCC[C@@H](C(N)=O)NC(=O)[C@H](Cc2c[nH]c3ccccc23)NC(=O)[C@H](CCCNC(=N)N)NC(=O)[C@@H](Cc2ccccc2)NC(=O)[C@H](Cc2c[nH]cn2)NC1=O [gallium-68 labelled]  tissue uptake (C57BL/6J mice male B16-F10 tumour, thyroid; 2 h post injection, unblocked): 4.7 ± 1.1 %ID/g
CCCC[C@H](NC(=O)CNC(=O)CNC(=O)CN1CCN(CC(=O)O)CCN(CC(=O)O)CC1)C(=O)N[C@H]1CC(=O)NCCCC[C@@H](C(N)=O)NC(=O)[C@H](Cc2c[nH]c3ccccc23)NC(=O)[C@H](CCCNC(=N)N)NC(=O)[C@@H](Cc2ccccc2)NC(=O)[C@H](Cc2c[nH]cn2)NC1=O [gallium-67 labelled]  tissue uptake (female C57 mice, B16/F1 melanoma, liver; intravenous, 0.037 MBq, 24 h): 0.5 ± 0.12 %ID/g
CCCC[C@@H]1NC(=O)[C@@H](NC(=O)[C@H](CCC(=O)O)NC(=O)CNC(=O)CN2CCN(CC(=O)O)CCN(CC(=O)O)CCN(CC(=O)O)CC2)CCCCNC(=O)C[C@@H](C(N)=O)NC(=O)[C@H](C(C)C)NC(=O)[C@@H]2CCCN2C(=O)[C@H](CCCNC(=N)N)NC(=O)CNC(=O)[C@H](Cc2c[nH]c3ccccc23)NC(=O)[C@H](CCCNC(=N)N)NC(=O)[C@@H](Cc2ccccc2)NC(=O)[C@H](Cc2c[nH]cn2)NC(=O)[C@H](CCC(=O)O)NC1=O [gallium-67 labelled]  tissue uptake (C57 mice, B16/F10 lung metastases, skin; intravenous, 0.037 MBq/mouse, 2 h): 0.57 ± 0.19 %ID/g
CCCC[C@H](NC(=O)CNC(=O)CNC(=O)CN1CCN(CC(=O)O)CCN(CC(=O)O)CCN(CC(=O)O)CC1)C(=O)N[C@H]1CC(=O)NCCCC[C@@H](C(N)=O)NC(=O)[C@H](Cc2c[nH]c3ccccc23)NC(=O)[C@H](CCCNC(=N)N)NC(=O)[C@@H](Cc2ccccc2)NC(=O)[C@H](Cc2c[nH]cn2)NC1=O [gallium-67 labelled]  tissue uptake (female C57 mice, B16/F1 melanoma, lung; intravenous, 0.037 MBq, 0.5 h): 3.23 ± 0.07 %ID/g
CC(C)[C@H](NC(=O)[C@@H]1CCCN1C(=O)[C@H](CCCNC(=N)N)NC(=O)[C@H](CS)NC(=O)[C@H](Cc1c[nH]c2ccccc12)NC(=O)[C@H](CCCNC(=N)N)NC(=O)[C@@H](Cc1ccccc1)NC(=O)[C@H](Cc1c[nH]cn1)NC(=O)[C@H](CCC(=O)O)NC(=O)[C@H](CS)NC(=O)[C@H](CS)NC(=O)CNC(=O)[C@@H]1CC(=O)N[C@@H](CCCNC(=N)N)C(=O)NCC(=O)N[C@@H](CC(=O)O)C(=O)N[C@H](Cc2ccc(O)cc2)C(=O)N1)C(N)=O [technetium-99m labelled]  tissue uptake (C57 mice B16/F1 melanoma female, brain; iv, 2 h, together with: NDP-MSH 10 µg co-injected): 0.09 ± 0.08 %ID/g

Some of these lines once more:
CC(C)[C@H](NC(=O)[C@@H]1CCCN1C(=O)[C@H](CCCNC(=N)N)NC(=O)[C@H](CS)NC(=O)[C@H](Cc1c[nH]c2ccccc12)NC(=O)[C@H](CCCNC(=N)N)NC(=O)[C@@H](Cc1ccccc1)NC(=O)[C@H](Cc1c[nH]cn1)NC(=O)[C@H](CCC(=O)O)NC(=O)[C@H](CS)NC(=O)[C@H](CS)NC(=O)CNC(=O)[C@@H]1CC(=O)N[C@@H](CCCNC(=N)N)C(=O)NCC(=O)N[C@@H](CC(=O)O)C(=O)N[C@H](Cc2ccc(O)cc2)C(=O)N1)C(N)=O [technetium-99m labelled]  tissue uptake (C57 mice B16/F1 melanoma female, brain; iv, 2 h, together with: NDP-MSH 10 µg co-injected): 0.09 ± 0.08 %ID/g
